Published values collected from several papers.
Parts stem from different laboratories: compare values within a part only.

Set 1
Target: Histone acetyltransferase KAT6A, both winged helices, GST fusion (KAT6A, Homo sapiens, UniProt Q92794, residues 1-181)
Technique: protein binding microarray
Molecule type: double-stranded DNA, one strand shown
Matrix: in vitro
Tested at: not given
Notes: 8-mer, flanks averaged, mean of 2 arrays, mostly near background
Reference: not given
Direction: higher = stronger binding
Construct (chain): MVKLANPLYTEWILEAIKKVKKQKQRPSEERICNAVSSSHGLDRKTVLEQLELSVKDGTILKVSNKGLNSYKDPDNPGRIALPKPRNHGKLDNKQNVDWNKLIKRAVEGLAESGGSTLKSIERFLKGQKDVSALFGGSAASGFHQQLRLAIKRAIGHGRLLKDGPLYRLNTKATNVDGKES
Oligonucleotide | E-score
AACGAACA | 0.16
GCATGCAC | 0.0882
AGCATCCA | -0.196
CAGAGAGA | -0.135
AACAGTTA | 0.0467
CTGTCGAA | -0.0471
CAGGACAC | -0.114
CCCGATTA | 0.101
ATAGCTTC | -0.109
ACCAGCGA | -0.0155
CATCGGCG | 0.198
CCTATACC | -0.0297
AATGCGGA | 0.123
CCATATTC | -0.0388
CATATCGA | -0.00709
CGCGAGTA | 0.236
ATGCTATA | -0.0377

Set 2
Target: Phosphate system positive regulatory protein PHO4, full length, GST-tagged (PHO4, Saccharomyces cerevisiae, UniProt P07270, residues 1-312)
Technique: competition protein-binding microarray
Molecule type: double-stranded DNA, one strand shown
Matrix: in vitro
Tested at: 2 µM
Notes: whole 60-bp probe, lowest competitor level
Together with: Cbf1 competitor, 0.05 µM
Direction: higher = stronger binding
Shared flanks, not repeated: … GTCTTGATTCGCTTGACGCTGCTG
Construct (chain): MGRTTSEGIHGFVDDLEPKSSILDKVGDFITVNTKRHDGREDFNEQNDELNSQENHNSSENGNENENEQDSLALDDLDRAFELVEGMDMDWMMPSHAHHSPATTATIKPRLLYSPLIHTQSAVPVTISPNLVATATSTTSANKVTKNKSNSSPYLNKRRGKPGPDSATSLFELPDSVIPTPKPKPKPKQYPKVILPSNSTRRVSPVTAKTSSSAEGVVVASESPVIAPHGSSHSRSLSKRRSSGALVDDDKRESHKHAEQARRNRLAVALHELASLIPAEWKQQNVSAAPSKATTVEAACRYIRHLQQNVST
Oligonucleotide | fluorescence intensity [a.u.]
TGCGCAACAACTTGTCACGGCACTTTATGTCTAGAA | 4190
CTTCTGTAAATTTTTCACGTGCTGTGAAGCGCCCCG | 13800
TATTTTTAGATATCTCACGTTTATACACATTGCCCA | 10300
AGAACCGTTAAATTCCCCGTGCTTTCTCGCATTAAG | 8550
CGTTATTGAAAATCTCACGTGATGGTATCCACTAAT | 14600
AAATTACTAAGTTGTGTCGTGGGTGACGCCGTATGA | 6520
CGGGGTTAAGTTTGTTCTGTGGGTGGCTTGCAGCAG | 3940
GAGCCCCGCCCCTGCCACGTGGGCTTGTTTGGGTCT | 15400
CTAACGAAGGTTTGTCACGAAACTTACAAGCCAAGT | 3180
CATACCCAACCTTGGTCAGTGGGTGAAGATATTTGT | 4230
CGAAAGAAAGCGAGTCACGATAACGGTGAGGTGATT | 3830
GTCTTGTCTCATTGAGTCGTGGGTGTCCCCACTTCA | 7010
CGTAACGTTCTGCTCATCGTGACGGTGGGAGAGCCA | 6820
ATAGTACAAATCCGTCACATGATGATATTTGATTTT | 8020
TCATCCAAGTCAGGCCTCGTGAAAAAGAATTCTACT | 5680
GGTCTCCTCGGTGAGAACGTGATGGGATAGCCGTTA | 11800
AAAGCGGTAATTTGGGGAGTGGGTGCAGATATCTAT | 4300
GACAGCGACGGTAAACGCGTGTCGGTCGAGAAGGAG | 8550
AGTGGTTGCGTTTGCCACGTACGAAAAGTTGTTACC | 5770

Set 3
Target: RNA binding protein fox-1 homolog 2, RRM domain, GST-SBP tag (RBFOX2, Homo sapiens, UniProt O43251-10, residues 100-194)
Technique: RNA Bind-n-Seq
Molecule type: RNA
Matrix: in vitro
Tested at: 365 nM
Notes: natural RNA segment, single round, ends assumed
Reference: no-protein control
Direction: higher = stronger binding
Shared flanks, not repeated: GGGAGUUCUACAGUCCGACGAUC … UGGAAUUCUCGGGUGCCAA
Construct (chain): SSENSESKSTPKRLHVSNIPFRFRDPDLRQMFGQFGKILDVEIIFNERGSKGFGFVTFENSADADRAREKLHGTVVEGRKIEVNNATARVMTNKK
Oligonucleotide | RBNS enrichment (R)
GUUUUUCUUUUGCCAUACAAAGUUAUUAUCAUAUGAUUCUAUUUGGCUUCCUUCAAACUAUUGUUUGUAUACUAUAUUUGCUUGGCAAGGGGAGGUAGCUUUCUGUAUAA | 0.547
GUGAGGAUAAGGGGUGGGGGAGAAAAAAUCACUGUUUGUUUUUAAAAAGCAAAUCUUUCUGUAAACAGAAUAAAAGUUCCUCUCCCUUCCCUUCCCUCACCCCUGACAUG | 0.464
UCACAAGGGAAUAGAAGCAGAAGAAGCUGAGAGCCUCCCUAUUCCCAGAUGCCCUGGUGGAAUGACCUGCCUCUCUGCCGUUUCUGCCAACGUGUUGGUGCUAUAAGCUG | 0.508
UACAUAUAUAUAUAUGUAUAAAUAUAAGAAUAUCCCAGCGGCACUUUAUACUGUUCACUGUACAAAAGCUUACAGUUUUCCACAAGGACUUUAAUAACUAGCUGGGGAAA | 0.454
CCAAAUGGUGGGGACCCUGAGCCCAGCUCUGACCAGGUAGAGCCUGUGCAGCCUGGGCUGCUGUCAUUGCCCUCCAGUAAGGGCUCAGGGUUUUGCUUUUAGUCUCCCCU | 0.375
CUACUGGCCAGGUCACCAAGCAGUGGCCUUUAUCUGACAUGCUCACUUUAUUAUCCAUGUUUUAAAAAUACAUAGUUGUUGUACCUGCUAUGUUUUACCGUUGAUGAAAG | 0.25
AUUCAAGAAAGCUUUAAAAGUUUUAUAUCCAGAUAUACAACCACAAUAAAGCAAAAUAACCUACUAUCAAAAUAGAAAUGUUGCUAUCUUUAUAAGUGCAAUUUAAUUUG | 0.477
UGUGCACGUGCACACAUGUGCACGUUUGUAUGUAUGGAAAUAAACUUAUAAAUGGGGACGUAUUGGAGAAGGAAAUACAUAGACCUACAACUUUGAGCAAAUAGCAGUGA | 0.999

Set 4
Target: RING finger protein unkempt homolog, zinc fingers 1-6, SBP tag (UNK, Homo sapiens, UniProt Q9C0B0, residues 30-357)
Sequence of UniProt Q9C0B0 (30-357, looked up): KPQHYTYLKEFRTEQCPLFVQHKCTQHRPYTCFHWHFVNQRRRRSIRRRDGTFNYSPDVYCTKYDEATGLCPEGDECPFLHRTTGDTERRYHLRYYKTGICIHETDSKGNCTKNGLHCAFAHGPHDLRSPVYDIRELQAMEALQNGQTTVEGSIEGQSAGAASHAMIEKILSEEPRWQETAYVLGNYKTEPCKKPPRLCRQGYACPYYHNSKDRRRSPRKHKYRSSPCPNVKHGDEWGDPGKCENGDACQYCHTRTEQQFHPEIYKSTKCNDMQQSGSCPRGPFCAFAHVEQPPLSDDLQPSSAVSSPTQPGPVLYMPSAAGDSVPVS
Technique: RNA Bind-n-Seq
Molecule type: RNA
Matrix: in vitro
Tested at: 100 nM
Notes: RNA with constant flanks, vertebrate orthologous sites, ends assumed
Reference: input RNA pool
Direction: higher = stronger binding
Shared flanks, not repeated: GGGAGUUCUACAGUCCGACGAUC … CAACAGAGGAUUGAGCAUCA
Oligonucleotide | bound/input enrichment
UGAAGAUGGUGGUUGUACAUUAUUUCAUUUAGAAAAUAUUAAUUCAUUUUGUUCUGAAGCUAGGUGUUAAACUGGAAUAGCUAUUAUACCCCAGAGAUUGGGGCAGUUGUGCCCUUCCCU | 2.02 ratio
GAUUUGGACCCUGGAGCCGAACCAGGGAGCUAGCAAAAGUAAAGCAGACUUGUAAAAUUAUAGCCAUGUGCAGCUGUACAGCAACAGUAUUACCACUAGCAUCUGUGUUAAAGUAUUUAU | 0.542 ratio
GAAGAUGGUGGUUGUACAUUAUUCAUCUAGAAAAUAUAAAAAUUCAUUUUGUUUUGAAGCUAGUUAUUAAACUGGAAUAGCAGUUAUAUCCCUGAGAAUGGGGCCCUUCUCUUGACAUUC | 2.45 ratio
UUCCAACUCAGGGCUUAUUUAUUUUAAGAUUAUCAACUAUAAAUCUAAUUUAUUACCAAAUCUUGGUCUUUAAAAAUAUAUAUUGUUGGAACCUUGACAGAUACUUCUAUAUUGUCAGCU | 0.528 ratio
UUUUAUUGAUCAGGUCUGUAAAUGUGUACUAAAAAAAUCAGAGUUUAUUUAUAAACAGAAUAGUUUAUUUAAAGAGAAGGUCUUCAUUGAUACUGUGGUAUGCAUUAAUUCCAUUUGUUA | 0.413 ratio
GUGGGGACAUAUUCUGGGGAGCUACCGGGCACUUACAUUAUUUGAUUUAUGACCUUGACUUACUAGAUAGGCUUUUCUUUUUUUAAUUUAAAAAUAUUGACUUCACAAAAGUUUAUUCUA | 0.659 ratio
GUGAGGGUCUGCUGACCACUCGCUGUUACGUCUGGUAUCUGUAAACGCUCUUUUUGUUCUUAGUCUUUUUCUUGUAUAAUUGAUACUCUUUAAAAUUGUUAAUGUAUAACAGGGCUCAUG | 2.33 ratio
GGCAUCUGAUUGGAUGAAGACCGUCCCGAGUUACAACCAAACAAACAGUUCCAUGGACUUUAGAAAUUACAUGAUGAGAGAUGAGAAUCUGGAACCACUGCCAAAAAACUGGGAAAUGGC | 0.503 ratio
